Assay results of several laboratories.
Each line is one published result; not all experiments were run side by side. Values joined by “and” are separate records of one study, mostly repeats; a detail may differ. Numbers after ± are the reported error.

O=C(c1ccccc1)N1C(c2ccc(OCC3CCN(CCCF)C3)cc2)c2ccc(O)cc2CC12CC2 (centres unmarked)  AUC(0-inf) (C57BL/6J mouse, plasma; oral, 25 mg/kg): 2480 ng·h/mL and 3480 ng·h/mL
Cc1cc(-c2ccc(C(=O)[C@@H]3CCCC[C@H]3C(=O)Nc3cnn4c3C(=O)NCC4)cc2)[nH]n1  radioactivity recovery per interval (human, urine; oral, 200 mg, 24-48 h; baseline: dose): 0.33% and 0.32% and 0.23% and 0.48% and 0.41% and 0.26%
N#Cc1cccc(-c2ccc3ncc(-c4cc(F)cc(F)c4)c(N4CCC(N)CC4)c3c2)c1OC1OC(C(=O)O)C(O)C(O)C1O (centres unmarked)  radioactivity recovered (healthy male, urine; oral, 20 mg, 72 h, 14C-paltusotine dosed; baseline: dose): 1.4%
COc1cnc2cccc(N3CCc4c(cc(Cn5ccnc5)cc4-c4cn(C)nc4C(F)(F)F)C3=O)c2c1  MRT(0-inf) (male CD-1 mouse, plasma; intraperitoneal, 50 mg/kg): 2.3 h
C=CC(=O)Nc1cc(Nc2nccc(-c3c[nH]c4ccccc34)n2)c(OC)cc1N(C)CCN(C)C  recovery (storage stability; human plasma; 5 h, -80 °C, medium QC level): 91.3%
COc1ccc2c(c1)C(C)(C)C(/C=C/C1=C(Oc3ccc(C(=O)NCCCCOc4cc(CN(Cc5ccccn5)Cc5ccccn5)cc(CN(Cc5ccccn5)Cc5ccccn5)c4)cc3)C(=C/C=C3/N(CCCCS(=O)(=O)[O-])c4ccc(OC)cc4C3(C)C)CCC1)=[N+]2CCCCS(=O)(=O)[O-].O=[N+]([O-])[O-].O=[N+]([O-])[O-].[99Tc+].[C-]#[O+].[C-]#[O+].[C-]#[O+].[Zn+2]  tracer uptake (mouse, kidney; 12 h): 1.76 %ID/g
N=C(N)NCCC[C@@H]1NC(=O)[C@H](CO)NC(=O)[C@@H](NC(=O)[C@H](CO)NC(=O)[C@H](CO)NC(=O)[C@H](Cc2c[nH]c3ccccc23)NC(=O)CNC(=O)[C@H](CO)NC(=O)[C@@H](N)Cc2c[nH]c3ccccc23)CSSC[C@@H](C(=O)NCC(=O)O)NC(=O)[C@H](CO)NC1=O  AUC(0-80 min) (patients, plasma; intravenous, 10 mg/kg, thrice weekly, mean): 951 ng·h/mL
CN(Cc1ccccc1)C(=O)CN1CCN(CC(=O)[O-])CCN(Cc2cccc(C(=O)[O-])n2)CC1.[18F-].[Sc+3]  tracer uptake (mouse, liver; intravenous, 1 h): 0.85 %ID/g
COc1cccc(OC)c1-c1cc(C(=O)NC2(C(=O)O)C3CC4CC(C3)CC2C4)nn1-c1ccc(C(=O)N(C)CCOCCOCCN(C)C(=O)[C@H](CCCCNC(=O)[C@H](CC(C)C)NC(=O)C2OC2C(=O)O)NC(=O)CN2CCN(CC(=O)[O-])CCN(CC(=O)[O-])CCN(CC(=O)[O-])CC2)cc1C(C)C.[177Lu+3] (mixture of isomers)  tumour-to-muscle ratio (mouse, HT-29 xenograft; 4 h post injection, biodistribution; baseline: tumour over muscle uptake): 11.1
COc1cc(N2CCN(C(=O)C3CCCN3)CC2)ccc1Nc1ncc(Cl)c(Nc2ccccc2P(C)(C)=O)n1 (centres unmarked)  body weight (nude mice, NCI-H3122 xenograft; oral, dose not given, day 13): 22.8 g and 22.9 g and 22.7 g and 23.5 g and 25.3 g
CC[C@H](C)[C@@H]1NC(=O)[C@H](Cc2ccc(O)cc2)NC(=O)CCCSC[C@@H](C(=O)N(CC(=O)N[C@@H](CC(C)C)C(=O)NCC(N)=O)Cc2ccc(F)cc2)NC(=O)[C@H](CC(N)=O)NC(=O)[C@H](CCC(N)=O)NC1=O  severe adverse events (human; intranasal, 200 µg repeated doses): 0%
Cc1nn(-c2nc3c(F)cc(F)cc3s2)c(O)c1C(c1ccc(C(F)(F)F)cc1)c1c(C)nn(-c2nc3c(F)cc(F)cc3s2)c1O  AUMC extrapolated observed (ICR mouse, plasma; oral, 50 mg/kg): 1.75% and 4.57% and 26.1%
O=C(C1CCN(c2nnnn2-c2ccccc2)CC1)N1CCCc2ccccc21  unbound fraction (equilibrium dialysis; mouse, plasma): 10%
CC[C@H](C)[C@@H](C(=O)N[C@@H](CC(C)C)C(=O)N[C@@H](CO)C(=O)N[C@@H](CO)C(=O)N[C@H](C(=O)N[C@@H](CC(N)=O)C(=O)N[C@H](C(=O)NCC(=O)N[C@@H](CO)C(=O)N[C@@H](CC(N)=O)C(=O)N[C@H](C(=O)N1CCC[C@H]1C(N)=O)[C@@H](C)O)C(C)C)[C@@H](C)O)N(C)C(=O)[C@H](C)NC(=O)CN(C)C(=O)[C@H](Cc1ccccc1)NC(=O)[C@H](CO)NC(=O)[C@H](CO)NC(=O)[C@H](Cc1c[nH]cn1)NC(=O)[C@H](Cc1c[nH]cn1)NC(=O)[C@H](CC(C)C)NC(=O)[C@H](Cc1ccccc1)NC(=O)[C@H](CCC(=O)O)NC(=O)[C@H](C)NC(=O)[C@H](CC(C)C)NC(=O)[C@H](CCCNC(=N)N)NC(=O)[C@H](CCC(N)=O)NC(=O)[C@@H](NC(=O)[C@H](C)NC(=O)[C@@H]1CSSC[C@H](NC(=O)[C@H](CCCNC(=N)N)NC(=O)CC[C@H](NC(=O)CCCCCCCCCCCCCCCCCCC(=O)O)C(=O)O)C(=O)N[C@@H](CC(N)=O)C(=O)N[C@@H]([C@@H](C)O)C(=O)N[C@@H](C)C(=O)N[C@@H]([C@@H](C)O)C(=O)N1)[C@@H](C)O  main peak area remaining (RP-HPLC; water; 1.0 mg/mL, 7 days, pH 7.5, 40 °C): 92%
CCCCN1C(=O)c2cccc3c(NCCCCCCN4CCOCC4)ccc(c23)C1=O  fluorescence lifetime (ethylene glycol): 6.9 ns
C[N+](C)(CCOCCOCCOCCNC(=S)Nc1ccc(C[C@H]2CN(CC(=O)[O-])CCN(CC(=O)[O-])CCN2CC(=O)[O-])cc1)C[c-]1cccc1.[64Cu+2].[Fe+2].c1cc[cH-]c1  large intestine uptake (nude mice, BxPC-3 xenograft, large intestine; 8 h, pretargeted, 216 h lag time): 1.3 ± 0.6 %ID/g
CCC(C(=O)Nc1ccc(C(N)=O)c(F)c1)n1cc(OC)c(-c2cc(Cl)ccc2-n2cc(C(F)(F)F)nn2)cc1=O (centres unmarked)  procedure-related adverse events (healthy male humans; 50 mg, IR formulation, fasted): 6.7%
O=C([O-])CN1CCN(CC(=O)[O-])CCN(CC(=O)[O-])CC1.[44Sc+3]  tracer uptake (mouse, stomach; intravenous, 1 h): 0.8 %ID/g
CC(=O)N([O-])CCCCCNC(=O)CCC(=O)N([O-])CCCCCNC(=O)CCC(=O)N([O-])CCCCCN.[89Zr+4]  intact complex (radio-TLC; aqueous buffer; 3 d, pH 8.5, 37 °C, 89Zr-labelled complex, together with: DTPA 1000-fold excess): 92.6 ± 0.5%
CCCC[C@H](NC(=O)CNC(=O)CNC(=O)[C@H](CCCCNC(=O)[C@H](CC(=O)O)NC(=O)C(C)c1ccc(CC(C)C)cc1)NC(=O)CN1CCN(CC(=O)O)CCN(CC(=O)O)CCN(CC(=O)O)CC1)C(=O)N[C@H]1CC(=O)NCCCC[C@@H](C(N)=O)NC(=O)[C@H](Cc2c[nH]c3ccccc23)NC(=O)[C@H](CCCNC(=N)N)NC(=O)[C@@H](Cc2ccccc2)NC(=O)[C@H](Cc2c[nH]cn2)NC1=O (some centres unmarked) [lutetium-177 labelled]  tumour-to-tissue ratio (C57 mice, tumour; 2 h; baseline: muscle): 83.2
O=C(NS(=O)(=O)c1cccs1)c1cc2ccccc2n1Cc1ccc(Br)c2ccccc12  body weight (KM mouse, chronic hyperuricaemia model; dose not given, day 8): 29.2 g and 29.8 g and 28.4 g and 24.9 g and 28 g and 30.3 g
O=C(Nc1cnccc1-c1ccc([18F])cc1)c1ccnc(NC(=O)C2CC2)c1  SUV (ex vivo gamma counting; GSK-3β transgenic mice, late-stage, spleen; intravenous, 1.26 MBq/animal, 120 min, mean, no P-gp inhibitor): 0.27
COc1cccc(OC)c1-c1cc(C(=O)NC2(C(=O)O)C3CC4CC(C3)CC2C4)nn1-c1ccc(C(=O)NCCNC(=O)[C@H](CCCCNC(=O)[C@H](CC(C)C)NC(=O)C2OC2C(=O)O)NC(=O)CN2CCN(CC(=O)[O-])CCN(CC(=O)[O-])CCN(CC(=O)[O-])CC2)cc1C(C)C.[177Lu+3] (mixture of isomers)  tissue uptake (mouse, HT-29 xenograft, liver; 72 h post injection): 0.78 %ID/g
CN([O-])C(=O)CN1CCN(CC(=O)N(C)[O-])CCN(Cc2ccccn2)CC1.[89Zr+4]  intact complex (radio-TLC; human serum; 2 days, run 3): 93.4%
O=C1NC2(CC2)COc2ncc(F)cc2[C@H]2COCCN2c2ccn3ncc1c3n2  micronucleus rate (bone marrow micronucleus test; NIH mice, female; oral, 60 mg/kg/day, 3 days): 0.65 ± 0.29 ‰
O=C(Nc1cnccc1-c1ccc([18F])nc1)c1ccnc(NC(=O)C2CC2)c1  SUV (ex vivo gamma counting; GSK-3β transgenic mice, early-stage, cortex; intravenous, 120 min, mean, no P-gp inhibitor): 0.017
C=C[C@]1(C)C[C@@H](OC(=O)CSc2ccc(NC(=O)c3ccco3)cc2)[C@]2(C)[C@H](C)CC[C@]3(CCC(=O)[C@H]32)[C@@H](C)[C@@H]1O  plasma concentration (Mycoplasma gallisepticum-infected chickens, plasma; intramuscular, 80 mg/kg, 10 h): 112 ng/mL and 142 ng/mL and 107 ng/mL and 99.3 ng/mL and 115 ng/mL and 101 ng/mL
C=C(NC(=O)c1csc(-c2nc3c(cc2O)-c2nc(cs2)C(=O)NC(C(C)O)C(=O)NC(=C(C)OC)c2nc(cs2)C(=O)NC2c4nc(cs4)C(=O)NC(COC(=O)c4c5c6c(cccc6n4O)COC(=O)C(OC4CC(C)(O)C(N(C)C)C(C)O4)C2OC5)c2nc-3cs2)n1)C(N)=O (centres unmarked)  Cmax (ICR mice, Streptococcus pneumoniae ATCC 49169 infected, immunocompromised, blood; intravenous, 2 mg/kg/day once daily): 58.9 ng/mL
COC1C=COC2(C)Oc3c(C)c(O)c4c(c3C2=O)C2=NC3(CCN(CC(C)C)CC3)NC2=C(NC(=O)C(C)=CC=CC(C)C(O)C(C)C(O)C(C)C(OC(=O)Nc2cnccn2)C1C)C4=O (centres unmarked)  elimination half-life (CD-1 mouse female, plasma; intravenous, 5 mg/kg): 4 h
C=CC(=O)Nc1cc(Nc2nccc(-c3cn(C)c4ccccc34)n2)c(OC)cc1N(C)CCNC  recovery (storage stability; human dried blood spot; 10 d, -80 °C, LQC level): 103%
COCC1CN(C2CCN(c3cc(OC)c(Nc4ncc(Br)c(Nc5ccc6c(c5P(C)(C)=O)OCCO6)n4)cc3C)CC2)C1  adverse events (first-in-human trial; human; oral, 30 mg once daily; treatment-related leading to permanent discontinuation): 0%
CC[C@H](C)[C@H](NC(=O)[C@@H](NC(=O)[C@H](CCCCN)NC(=O)[C@@H](NC(=O)[C@@H]1CCCN1[C@@H]1CN(C(=O)[C@@H](NC(=O)[C@@H](NC(=O)[C@@H](NC(=O)[C@@H](NC(=O)[C@@H](NC(=O)[C@@H](N)CCCCN)C(C)C)C(C)C)C(C)C)[C@@H](C)CC)[C@@H](C)O)CC[C@H]1NS(=O)(=O)c1ccc(C)cc1)[C@@H](C)O)C(C)C)C(=O)N[C@@H](CC(C)C)C(=O)N[C@@H](Cc1c[nH]cn1)C(N)=O  random coil content (CD spectroscopy; 20 mM phosphate buffer; 125 µM, 20 °C): 58.5%
